Measurements pooled from the literature.
Protocols differ between the studies behind these lines. Several values in a cell are separate wells, animals, samples, runs or records. ± gives the spread as reported.

With N=C(N)NCCC[C@@H]1NC(=O)[C@H](CCCCNC(=O)CNC(=O)CNC(=O)CNC(=O)CC[C@H](NC(=O)c2ccc(NN=Cc3ccccc3S(=O)(=O)O)nc2)C(=O)NCC(=O)NCC(=O)NCC(=O)NCCCC[C@@H]2NC(=O)[C@@H](Cc3ccccc3)NC(=O)[C@H](CC(=O)O)NC(=O)CNC(=O)[C@H](CCCNC(=N)N)NC2=O)NC(=O)[C@@H](Cc2ccccc2)NC(=O)[C@H](CC(=O)O)NC(=O)CNC1=O [technetium-99m labelled] the tumour uptake was < 8 %ID/g (female athymic nu/nu mice, U-87 MG glioma, tumour; intravenous, dose not given, 120 min, tumour weight above 0.4 g).
With CCCC[C@H](NC(=O)CNC(=O)CNC(=O)CNC(=O)c1ccc(NN)nc1)C(=O)N[C@H]1CC(=O)NCCCC[C@@H](C(N)=O)NC(=O)[C@H](Cc2c[nH]c3ccccc23)NC(=O)[C@H](CCCNC(=N)N)NC(=O)[C@@H](Cc2ccccc2)NC(=O)[C@H](Cc2c[nH]cn2)NC1=O [technetium-99m labelled] the uptake was 0.02 ± 0.01 %ID/g (C57 mouse, B16/F1 melanoma, pancreas; intravenous, 2 h).
For CC(C)C[C@@H]1NC(=O)[C@H](C(C)C)NC(=O)[C@H](CO)NC(=O)CNC(=O)CNC(=O)[C@H](CCCNC(=N)N)NC(=O)[C@@H]2CCCN2C(=O)[C@@H](NC(=O)CC[C@H](NC(=O)c2ccc(N(C)Cc3cnc4nc(N)nc(N)c4n3)cc2)C(=O)O)C(C)(C)SSC[C@@H](C(=O)O)NC(=O)CNC(=O)[C@H]([C@@H](C)O)NC(=O)[C@H](C(C)C)NC1=O, “degradation rate constant” read 0.0032 h⁻¹ (HPLC; Acetate buffer; pH 4.0, 70 °C).
CC(C)C[C@H](NC(=O)[C@@H]1CCCN1C(=O)[C@H](CCCCN)NC(=O)[C@@H](N)CO)C(=O)N1CCC[C@H]1C(=O)N[C@@H](CCC(=O)O)C(=O)N[C@H](C(=O)N[C@H](C(=O)N[C@@H](CC(=O)O)C(=O)N[C@@H](CCC(=O)O)C(=O)N[C@@H](Cc1ccc(O)cc1)C(=O)N[C@@H](Cc1cn(CCOCCOCCOCCNC(=O)CCc2ccc(O)c(CN(CCN(CC(=O)O)Cc3cc(CCC(=O)NCCCC[C@H](NC(=O)N[C@@H](CCC(=O)O)C(=O)O)C(=O)O)ccc3O)CC(=O)O)c2)nn1)C(=O)O)[C@@H](C)O)C(C)C [gallium-68 labelled] gave an SUV of 0.05 g/g (NMRI nu/nu mouse, LNCaP xenograft, submandibular gland; 135.34 nmol/kg, low molar activity).
N=C(N)NCCC[C@@H]1NC(=O)[C@H](CCCCNC(=O)CCOCCOCCOCCOCCNC(=O)CC[C@H](NC(=O)CCOCCOCCOCCOCCNC(=O)CC[C@H](NC(=O)CN2CCN(CC(=O)O)CCN(CC(=O)O)CCN(CC(=O)O)CC2)C(=O)NCCOCCOCCOCCOCCC(=O)N[C@@H](CCC(=O)NCCOCCOCCOCCOCCC(=O)NCCCC[C@@H]2NC(=O)[C@@H](Cc3ccccc3)NC(=O)[C@H](CC(=O)O)NC(=O)CNC(=O)[C@H](CCCNC(=N)N)NC2=O)C(=O)NCCOCCOCCOCCOCCC(=O)NCCCC[C@@H]2NC(=O)[C@@H](Cc3ccccc3)NC(=O)[C@H](CC(=O)O)NC(=O)CNC(=O)[C@H](CCCNC(=N)N)NC2=O)C(=O)NCCOCCOCCOCCOCCC(=O)NCCCC[C@@H]2NC(=O)[C@@H](Cc3ccccc3)NC(=O)[C@H](CC(=O)O)NC(=O)CNC(=O)[C@H](CCCNC(=N)N)NC2=O)NC(=O)[C@@H](Cc2ccccc2)NC(=O)[C@H](CC(=O)O)NC(=O)CNC1=O [indium-111 labelled] has a tissue uptake of 0.14 ± 0.03 %ID/g (female athymic nude mice, brain; intravenous, 3 µCi, 1 h, U-87 MG glioma xenograft).
With CCCC[C@H](NC(=O)CCCCCCCNC(=O)c1ccc(NN)nc1)C(=O)N[C@H]1CC(=O)NCCCC[C@@H](C(N)=O)NC(=O)[C@H](Cc2c[nH]c3ccccc23)NC(=O)[C@H](CCCNC(=N)N)NC(=O)[C@@H](Cc2ccccc2)NC(=O)[C@H](Cc2c[nH]cn2)NC1=O [technetium-99m labelled] the uptake was 3.19 ± 0.39 %ID/g (C57 mouse, B16/F1 melanoma, liver; intravenous, 0.5 h).
N=C(N)NCCC[C@@H]1NC(=O)[C@H](CCCCNC(=O)CCOCCOCCOCCOCCNC(=O)CC[C@H](NC(=O)[C@H](CCCCNC(=O)c2ccc(NN)nc2)NC(=O)c2ccc(NN)nc2)C(=O)NCCOCCOCCOCCOCCC(=O)NCCCC[C@@H]2NC(=O)[C@@H](Cc3ccccc3)NC(=O)[C@H](CC(=O)O)NC(=O)CNC(=O)[C@H](CCCNC(=N)N)NC2=O)NC(=O)[C@@H](Cc2ccccc2)NC(=O)[C@H](CC(=O)O)NC(=O)CNC1=O [technetium-99m labelled] gave a tissue ratio of 9.87 ± 1.65 (female athymic nude mice; intravenous, 1 h, U-87 MG glioma xenograft; reference: tumour over blood).
N=C(N)NCCC[C@@H]1NC(=O)[C@H](CCCCNC(=O)CC[C@H](NC(=O)CCOCCOCCOCCOCCNC(=O)CC[C@H](NC(=O)CN2CCN(CC(=O)O)CCN(CC(=O)O)CCN(CC(=O)O)CC2)C(=O)NCCOCCOCCOCCOCCC(=O)N[C@@H](CCC(=O)NCCCC[C@@H]2NC(=O)[C@@H](Cc3ccccc3)NC(=O)[C@H](CC(=O)O)NC(=O)CNC(=O)[C@H](CCCNC(=N)N)NC2=O)C(=O)NCCCC[C@@H]2NC(=O)[C@@H](Cc3ccccc3)NC(=O)[C@H](CC(=O)O)NC(=O)CNC(=O)[C@H](CCCNC(=N)N)NC2=O)C(=O)NCCCC[C@@H]2NC(=O)[C@@H](Cc3ccccc3)NC(=O)[C@H](CC(=O)O)NC(=O)CNC(=O)[C@H](CCCNC(=N)N)NC2=O)NC(=O)[C@@H](Cc2ccccc2)NC(=O)[C@H](CC(=O)O)NC(=O)CNC1=O [indium-111 labelled] gave a tissue uptake of 5.5 ± 1.61 %ID/g (female athymic nude mice, intestine; intravenous, 3 µCi, 0.5 h, U-87 MG glioma xenograft).
C=Cc1c(C)c2cc3nc(c4c5[nH]c(cc6nc(cc1[nH]2)C(C)=C6CC)c(C)c5C(=O)C4)[C@@H](CCC(=O)NCC(=O)N1CCC[C@H]1C(=O)N[C@@H](CC(C)C)C(=O)NCC(=O)N[C@@H](Cc1ccccc1)C(=O)N[C@@H](CCCNC(=N)N)C(=O)N[C@H](C(=O)NCC(=O)N[C@@H](CCCCNC(=O)CCCN(C)c1ccc(/N=N/c2ccc4nc5ccc(N(CC)CC)cc5[n+](-c5ccccc5)c4c2)cc1)C(N)=O)C(C)C)[C@@H]3C has a penetration depth of 50 µm (C57BL/6J mouse, DMM osteoarthritis model, knee articular cartilage; intra-articular, 6 h).
N=C(N)NCCC[C@@H]1NC(=O)[C@H](CCCCNC(=O)CNC(=O)CNC(=O)CNC(=O)CC[C@H](NC(=O)CCOCCOCCOCCOCCNC(=O)CC[C@H](NC(=O)CN2CCN(CC(=O)O)CCN(CC(=O)O)CCN(CC(=O)O)CC2)C(=O)NCCOCCOCCOCCOCCC(=O)N[C@@H](CCC(=O)NCC(=O)NCC(=O)NCC(=O)NCCCC[C@@H]2NC(=O)[C@@H](Cc3ccccc3)NC(=O)[C@H](CC(=O)O)NC(=O)CNC(=O)[C@H](CCCNC(=N)N)NC2=O)C(=O)NCC(=O)NCC(=O)NCC(=O)NCCCC[C@@H]2NC(=O)[C@@H](Cc3ccccc3)NC(=O)[C@H](CC(=O)O)NC(=O)CNC(=O)[C@H](CCCNC(=N)N)NC2=O)C(=O)NCC(=O)NCC(=O)NCC(=O)NCCCC[C@@H]2NC(=O)[C@@H](Cc3ccccc3)NC(=O)[C@H](CC(=O)O)NC(=O)CNC(=O)[C@H](CCCNC(=N)N)NC2=O)NC(=O)[C@@H](Cc2ccccc2)NC(=O)[C@H](CC(=O)O)NC(=O)CNC1=O [indium-111 labelled] — result for “tumour to tissue ratio”: 2.17 ± 0.48 (athymic nude mice, female, U-87 MG glioma xenograft, tumour and kidney; intravenous, 4 h; reference: tumour over kidney).
CCCC[C@H](NC(=O)[C@H](Cc1cccs1)NC(=O)[C@H](Cc1c[nH]cn1)NC(=O)CCNC(=O)[C@@H](NC(=O)[C@H](C)NC(=O)[C@H](Cc1c[nH]c2ccccc12)NC(=O)[C@H](CCC(N)=O)NC(=O)[C@H](Cc1cccs1)NC(=O)CN1CCC(NC(=O)CN(CCN(CCN(CC(=O)O)CC(=O)O)CC(=O)O)CC(=O)O)CC1)C(C)C)C(N)=O [indium-111 labelled] gave an intact peptide of 9.5% and 10.2% (radio-HPLC; Swiss nu/nu mice, blood; intravenous, 1 nmol, 5 min).
The tissue uptake of N=C(N)NCCC[C@@H]1NC(=O)[C@H](CCCCNC(=O)CCOCCOCCOCCOCCNC(=O)CN2CCN(CC(=O)O)CCN(CC(=O)O)CCN(CC(=O)O)CC2)NC(=O)[C@@H](Cc2ccccc2)NC(=O)[C@H](CC(=O)O)NC(=O)CNC1=O [indium-111 labelled] is reported as 1 ± 0.08 %ID/g (female athymic nude mice, liver; intravenous, 3 µCi, 1 h, U-87 MG glioma xenograft).
CCCC[C@H](NC(=O)CNC(=O)CNC(=O)c1ccc(NN)nc1)C(=O)N[C@H]1CC(=O)NCCCC[C@@H](C(N)=O)NC(=O)[C@H](Cc2c[nH]c3ccccc23)NC(=O)[C@H](CCCNC(=N)N)NC(=O)[C@@H](Cc2ccccc2)NC(=O)[C@H](Cc2c[nH]cn2)NC1=O [technetium-99m labelled] gave an uptake of 0.09 ± 0.1 %ID/g (C57 mouse, B16/F1 melanoma, bone; 2 h, added: NDP-MSH 6.07 nmol blockade).
For N=C(N)NCCC[C@@H]1NC(=O)[C@H](CCCCNC(=O)CC[C@H](NC(=O)CCOCCOCCOCCOCCNC(=O)CN2CCN(CC(=O)O)CCN(CC(=O)O)CCN(CC(=O)O)CC2)C(=O)NCCCC[C@@H]2NC(=O)[C@@H](Cc3ccccc3)NC(=O)[C@H](CC(=O)O)NC(=O)CNC(=O)[C@H](CCCNC(=N)N)NC2=O)NC(=O)[C@@H](Cc2ccccc2)NC(=O)[C@H](CC(=O)O)NC(=O)CNC1=O [indium-111 labelled], the tissue uptake was 5.88 ± 2.42 %ID/g (female athymic nude mice, intestine; intravenous, 3 µCi, 4 h, U-87 MG glioma xenograft).
CSCC[C@H](NC(=O)[C@H](CC(C)C)NC(=O)CNC(=O)[C@H](Cc1ccccc1)NC(=O)[C@H](Cc1ccccc1)NC(=O)[C@H](CCC(N)=O)NC(=O)[C@H](CCC(N)=O)NC(=O)[C@@H]1CCCN1C(=O)[C@H](CCCCNC(=O)CCC1=[N+]2C(=Cc3c(C)cc(C)n3[B-]2(F)F)C=C1)NC(=O)[C@@H]1CCCN1C(=O)[C@@H](N)CCCNC(=N)N)C(N)=O has an emission maximum of 510 nm (PBS; 10 nM, pH 7.4).

Repeated from above:
With N=C(N)NCCC[C@@H]1NC(=O)[C@H](CCCCNC(=O)CNC(=O)CNC(=O)CNC(=O)CC[C@H](NC(=O)c2ccc(NN=Cc3ccccc3S(=O)(=O)O)nc2)C(=O)NCC(=O)NCC(=O)NCC(=O)NCCCC[C@@H]2NC(=O)[C@@H](Cc3ccccc3)NC(=O)[C@H](CC(=O)O)NC(=O)CNC(=O)[C@H](CCCNC(=N)N)NC2=O)NC(=O)[C@@H](Cc2ccccc2)NC(=O)[C@H](CC(=O)O)NC(=O)CNC1=O [technetium-99m labelled] the tumour uptake was < 8 %ID/g (female athymic nu/nu mice, U-87 MG glioma, tumour; intravenous, dose not given, 120 min, tumour weight above 0.4 g).
